# Results gathered from unrelated publications.
# Protocols differ between the studies behind these lines. Several values in a cell are separate wells, animals, samples, runs or records. ± gives the spread as reported.
Compound,assay,test system,conditions,scale,measurement,result
O=c1n(CCNCCOS(=O)(=O)c2ccccc2)c(=O)n(S(=O)(=O)c2ccccc2)c(=O)n1S(=O)(=O)c1ccccc1,DPPH scavenging,,62.5 µg/mL,,inhibition,46.7%
COc1cccc(OCCN2CCC[C@H](CN3CCc4cc(OC)c(OC)cc4CC3=O)C2)c1,,"C57BL/6J mouse, female, stress-naive","intraperitoneal, 5 mg/kg, 14 d post-dose",relative to: before dosing,"time in interaction zone, target present",no effect
COc1ccccc1-c1n[nH]c2nc(NC3CCN(C(=O)Cc4ccc(F)cc4F)CC3)ncc12,"bead binding, competition bead pull-down, item: LINJ.33.1410",Leishmania donovani extract,10 µM,relative to: vehicle,relative abundance,0.92
CCN(Cc1ccccc1)C(=O)CCc1nc(CN2CCN(C(=O)Cc3ccc(OC)c(OC)c3)CC2)no1,current clamp,"DRG neurons, naive rat","1 µM, together with: 500 pA current injection",,action potential number,1.78 ± 0.42
O=C(NCc1cc(F)cc(F)c1)[C@@]1(O)CCN(c2ccc3[nH]ccc3c2)C1=O,,sample E PDX mouse,"dose not given, RTV endpoint 500%",,median survival time,> 80 days
O=C(O)c1ccc(-c2nc(-c3ccccc3Cl)c3sccn23)cc1,,C57BL/6 mice,"dose not given, day 27, basal hematopoiesis",,platelet count change,112% and 96.1% and 137% and 104%
CCc1nnc(-c2c(OC)cc(-c3cnc4cc(-c5cnn(C)c5)ccn34)cc2OC)o1,histomorphometry,"male C57BL/6J mouse, tibia","oral gavage, 40 mg/kg once daily, 3 wk",,trabecular bone volume fraction,19.6 ± 3.35%
COc1ccccc1-c1n[nH]c2nc(N[C@H]3CC[C@H](NS(=O)(=O)CC(C)C)CC3)ncc12,"bead binding, competition bead pull-down, item: LINJ.24.1910",Leishmania donovani extract,10 µM,relative to: vehicle,relative abundance,1.14
CC(=O)NCSC[C@H](NC(=O)[C@@H]1CCCN1C(=O)[C@H](C)NC(=O)[C@@H](NC(=O)CNC(=O)[C@@H](NC(=O)[C@H](Cc1c[nH]c2ccccc12)NC(=O)[C@H](C)NC(=O)CNC(=O)[C@H](CO)NC(=O)[C@H](C)NC(=O)[C@@H]1CCCN1C(=O)[C@H](Cc1c[nH]c2ccccc12)NC(=O)[C@H](C)NC(=O)[C@H](C)NC(=O)[C@@H](N)Cc1ccc(O)cc1)[C@@H](C)O)[C@@H](C)O)C(=O)N[C@@H](CO)C(=O)N[C@@H](C)C(=O)NCC(=O)N[C@H](C(=O)NCCOCCOCCOCCOCCOCCOCCOCCOCCOCCOCCOCCOCCC(=O)N[C@@H](CS)C(N)=O)[C@@H](C)O,phage binding,NSCLC cell line panel,selectivity at least 20,,number of cell lines,8
COC(=O)[C@H](CC(C)C)NC(=O)[C@@H]1CCCN1C(=O)[C@@H](NC(=O)[C@H](CCC(=O)C=[N+]=[N-])NC(=O)OCc1ccccc1)C(C)C,,isolated mouse mitochondria,concentration not given,,Ca2+ retention capacity,no effect
Cc1ccc(S(=O)(=O)N2CC2C(=O)N(C)C)cc1 (stereo not drawn),,"mouse, Lewis lung carcinoma","intraperitoneal, 170 mg/kg, 16 doses, day 16",,tumour growth inhibition,48%
"O=C(Cc1ccc(Cl)c(Cl)c1)N1CCN(CC2CCC2)[C@@H]2COC[C@H](N3CCCC3)[C@H]21 (single isomer, unassigned)",antagonist,"male C57BL/6 mice, serum","3 mg/kg, 15 min, KOR target engagement, together with: KOR agonist 30 mg/kg",,serum prolactin,inhibited

# Excerpt of the above:
Compound,assay,test system,conditions,scale,measurement,result
CCN(Cc1ccccc1)C(=O)CCc1nc(CN2CCN(C(=O)Cc3ccc(OC)c(OC)c3)CC2)no1,current clamp,"DRG neurons, naive rat","1 µM, together with: 500 pA current injection",,action potential number,1.78 ± 0.42
